Measurements from different studies.
Lines come from different studies, so protocols differ. Numbers after ± are the reported error.
HLA class I histocompatibility antigen, A alpha chain allele A*24:02: HLA class I histocompatibility antigen, A alpha chain, allele A*24:02 (Homo sapiens, UniProt P04439)
HLA class I histocompatibility antigen, A alpha chain allele A*02:01: HLA class I histocompatibility antigen, A alpha chain, allele A*02:01 (Homo sapiens, UniProt P04439)
ampC: Beta-lactamase (ampC, Escherichia coli K-12, UniProt P00811)

| SMILES | target | effect on | mode | method | together with | quantity | result |
| --- | --- | --- | --- | --- | --- | --- | --- |
| CC[C@H](C)[C@H](NC(=O)[C@@H](N)CCCCN)C(=O)N[C@@H](Cc1ccccc1)C(=O)N1CCC[C@H]1C(=O)N[C@H](C(=O)N1CCC[C@H]1C(=O)N[C@@H](CC(C)C)C(=O)N[C@@H](CCCCN)C(=O)N[C@@H](Cc1ccccc1)C(=O)O)C(C)C | HLA class I histocompatibility antigen, A alpha chain allele A*24:02 | binding |  |  |  | IC50 | 0.102 µM |
| C[C@H]1CN(c2n[nH]c3nc(N[C@H]4CC[C@H](NS(=O)(=O)CCC(F)(F)F)CC4)ncc23)CCO1 | Insulin-like growth factor 2 mRNA-binding protein 3 (IGF2BP3, Homo sapiens, UniProt O00425) |  |  | biochemical |  | IC50 | ≥ 20 µM |
| CSCC[C@H](NC(=O)[C@@H](N)CCCNC(=N)N)C(=O)N[C@@H](Cc1ccccc1)C(=O)NCC(=O)N1CCC[C@H]1C(=O)N1CCC[C@H]1C(=O)N[C@@H](CC(C)C)C(=O)N[C@H](C(=O)N[C@@H](Cc1ccccc1)C(=O)O)[C@@H](C)O | HLA class I histocompatibility antigen, A alpha chain allele A*02:01 | binding |  |  |  | IC50 | 0.874 µM |
| CC[C@H](C)[C@H](NC(=O)c1ccc2c(c1)C(=O)OC21c2ccc(N(C)C)cc2Oc2cc(N(C)C)ccc21)C(=O)N[C@@H](CCC(=O)O)C(=O)N[C@@H](CO)C(=O)N[C@@H](CO)C(=O)N[C@@H](CC(N)=O)C(=O)N[C@@H](Cc1ccc(O)cc1)C(=O)N[C@@H](CCSC)C(=O)N[C@@H](C)C(=O)N1CCC[C@H]1C(=O)N[C@@H](Cc1ccc(OP(=O)(O)O)cc1)C(=O)N[C@@H](CC(=O)O)C(=O)N[C@@H](CC(N)=O)C(=O)N[C@@H](Cc1ccc(O)cc1)C(=O)N[C@H](C(=O)N1CCC[C@H]1C(=O)N[C@@H](CO)C(=O)N[C@@H](C)C(=O)N[C@@H](CC(=O)O)C(=O)O)C(C)C | 1-phosphatidylinositol 4,5-bisphosphate phosphodiesterase gamma-2, SH2 domain (PLCG2, Homo sapiens, UniProt P16885) | binding |  |  |  | Kd | 1.14 µM |
| CSCC[C@H](NC(=O)[C@@H](N)CCCNC(=N)N)C(=O)N[C@@H](Cc1ccc(O)cc1)C(=O)N[C@@H](CC(N)=O)C(=O)N1CCC[C@H]1C(=O)N[C@H](C(=O)N[C@@H](CC(C)C)C(=O)N[C@@H](CCCNC(=N)N)C(=O)N[C@@H](Cc1ccccc1)C(=O)O)C(C)C | HLA class I histocompatibility antigen, A alpha chain allele A*24:02 | binding |  |  |  | IC50 | 1.61 µM |
| CCCCOP(=O)(O)C(C)=O | 1-deoxy-D-xylulose-5-phosphate synthase (dxs, Escherichia coli, UniProt P77488, R99A) |  | inhibitor |  |  | Ki | 30 ± 6 µM |
| COC(=O)C(Cc1cccc(F)c1)NS(=O)(=O)c1cccc(Cl)c1O (stereo not drawn) | ampC |  |  |  |  | Ki | 212 µM |
| CSCC[C@H](NC(=O)[C@H](CO)NC(=O)[C@H](CC(C)C)NC(=O)[C@H](CO)NC(=O)[C@H](Cc1c[nH]cn1)NC(=O)CNC(=O)[C@H](Cc1ccc(O)cc1)NC(=O)[C@H](CC(C)C)NC(=O)[C@@H](N)CCCNC(=N)N)C(=O)O | HLA class I histocompatibility antigen, A alpha chain allele A*02:01 | binding |  |  |  | IC50 | 0.159 µM |
| O=C(CNS(=O)(=O)c1cccc(Cl)c1O)N1CCOc2ccccc21 | ampC |  |  |  |  | Ki | 190 µM |
| C[C@H]1O[C@@H](Oc2ccccc2[N+](=O)[O-])[C@H](O)[C@@H](O)[C@H]1O | lacI (Escherichia coli, UniProt P03023) | operator DNA binding |  | nitrocellulose filter binding | O1 operator DNA | EC50 | 110 ± 11 µM |
| COc1cc(Nc2ncc(F)c(Nc3ccc4c(n3)NC(=O)C(C)(C)O4)n2)cc(OC)c1OC | Alpha-1D adrenergic receptor (ADRA1D, Homo sapiens, UniProt P25100) |  |  |  |  | IC50 | > 10 µM |
| CSCC[C@H](NC(=O)[C@H](CCC(N)=O)NC(=O)[C@@H](N)CCCCN)C(=O)NCC(=O)N[C@@H](Cc1c[nH]cn1)C(=O)N[C@@H](CC(C)C)C(=O)N[C@@H](CC(C)C)C(=O)N[C@H](C(=O)N[C@@H](Cc1ccccc1)C(=O)O)[C@@H](C)O | HLA class I histocompatibility antigen, A alpha chain allele A*24:02 | binding |  |  |  | IC50 | 0.719 µM |
| CSCC[C@H](NC(=O)[C@H](CC(C)C)NC(=O)[C@H](C)NC(=O)[C@H](CCCNC(=N)N)NC(=O)[C@H](Cc1ccc(OP(=O)(O)O)cc1)NC(=O)[C@H](Cc1ccccc1)NC(=O)[C@H](CC(N)=O)NC(=O)[C@H](CO)NC(=O)[C@H](CC(=O)O)NC(=O)[C@@H](NC(=O)[C@@H]1CCCN1C(=O)[C@H](CO)NC(=O)[C@@H]1CCCN1C(=O)[C@H](CC(C)C)NC(=O)c1ccc2c(c1)C(=O)OC21c2ccc(N(C)C)cc2Oc2cc(N(C)C)ccc21)[C@@H](C)O)C(=O)N[C@@H](CC(=O)O)C(=O)N[C@@H](CCC(=O)O)C(=O)N[C@@H](CCC(=O)O)C(=O)N[C@@H](CC(=O)O)C(=O)O | Tyrosine-protein kinase Blk, SH2 domain (BLK, Homo sapiens, UniProt P51451) | binding |  |  |  | Kd | 0.191 µM |
| CCCCCC(NS(=O)(=O)c1cccc(Cl)c1O)C(=O)OC (stereo not drawn) | ampC |  |  |  |  | Ki | 76 µM |
| OC[C@H]1O[C@@H](OCCc2ccccc2)[C@H](O)[C@@H](O)[C@H]1O | lacI (Escherichia coli, UniProt P03023, N125A) | operator DNA release |  | nitrocellulose filter binding | O1 operator DNA | EC50 | 390 ± 15 µM |
| CSCC[C@H](NC(=O)[C@@H](N)CCCNC(=N)N)C(=O)N[C@@H](Cc1ccc(O)cc1)C(=O)N[C@@H](CC(=O)O)C(=O)N[C@@H](CCCNC(=N)N)C(=O)N[C@@H](Cc1c[nH]cn1)C(=O)N[C@@H](Cc1ccc(O)cc1)C(=O)N[C@@H](CC(C)C)C(=O)N[C@@H](Cc1ccccc1)C(=O)O | HLA class I histocompatibility antigen, A alpha chain allele A*02:01 | binding |  |  |  | IC50 | 0.265 µM |
| CSCC[C@H](NC(=O)CNC(=O)[C@H](Cc1ccccc1)NC(=O)[C@H](CC(=O)O)NC(=O)CNC(=O)c1ccc2c(c1)C(=O)OC21c2ccc(N(C)C)cc2Oc2cc(N(C)C)ccc21)C(=O)N[C@@H](CO)C(=O)N[C@@H](CCCNC(=N)N)C(=O)N[C@@H](CC(=O)O)C(=O)N[C@H](C(=O)N[C@@H](Cc1ccc(OP(=O)(O)O)cc1)C(=O)N[C@@H](CO)C(=O)N[C@H](C(=O)N[C@@H](CC(=O)O)C(=O)N[C@@H](Cc1ccc(O)cc1)C(=O)N[C@@H](Cc1ccc(O)cc1)C(=O)N[C@@H](CCCNC(=N)N)C(=O)N[C@H](C(=O)N[C@@H](CC(=O)O)C(=O)O)C(C)C)[C@@H](C)O)C(C)C | SH2 domain-containing protein 3C, SH2 domain (SH2D3C, Homo sapiens, UniProt Q8N5H7) | binding |  |  |  | Kd | 1.4 µM |
| Cc1cccc(OCC(O)CNS(=O)(=O)c2cnn(C)c2C(=O)O)c1 (stereo not drawn) | ampC |  |  |  |  | Ki | 239 µM |
| CC[C@H](C)[C@H](NC(=O)[C@H](CCCNC(=N)N)NC(=O)[C@H](CC(N)=O)NC(=O)[C@H](Cc1ccccc1)NC(=O)[C@@H](NC(=O)[C@@H](N)Cc1ccc(O)cc1)[C@@H](C)O)C(=O)N[C@@H](Cc1c[nH]cn1)C(=O)N[C@@H](CCC(=O)O)C(=O)N[C@@H](Cc1ccccc1)C(=O)O | HLA class I histocompatibility antigen, A alpha chain allele A*02:01 | binding |  |  |  | IC50 | 14.8 µM |
| CC(C)Oc1ccc(NS(=O)(=O)c2cc(Cl)cc(Cl)c2O)cc1C#N | ampC |  |  |  |  | Ki | 40.4 µM |
| COc1cc(C(=O)N2CC[C@@H](O)[C@@H](N)C2)cc2nc(-c3cc4ccccc4n3CC3CC3)n(C)c12 | Adenosine receptor A2a (ADORA2A, Homo sapiens, UniProt P29274) |  | agonist | TR-FRET |  | EC50 | > 31.6 µM |
